Measured values from different studies.
Each line is one published result; not all experiments were run side by side. ± gives the spread as reported.
UniProt P08183, sequence (whole entry, looked up): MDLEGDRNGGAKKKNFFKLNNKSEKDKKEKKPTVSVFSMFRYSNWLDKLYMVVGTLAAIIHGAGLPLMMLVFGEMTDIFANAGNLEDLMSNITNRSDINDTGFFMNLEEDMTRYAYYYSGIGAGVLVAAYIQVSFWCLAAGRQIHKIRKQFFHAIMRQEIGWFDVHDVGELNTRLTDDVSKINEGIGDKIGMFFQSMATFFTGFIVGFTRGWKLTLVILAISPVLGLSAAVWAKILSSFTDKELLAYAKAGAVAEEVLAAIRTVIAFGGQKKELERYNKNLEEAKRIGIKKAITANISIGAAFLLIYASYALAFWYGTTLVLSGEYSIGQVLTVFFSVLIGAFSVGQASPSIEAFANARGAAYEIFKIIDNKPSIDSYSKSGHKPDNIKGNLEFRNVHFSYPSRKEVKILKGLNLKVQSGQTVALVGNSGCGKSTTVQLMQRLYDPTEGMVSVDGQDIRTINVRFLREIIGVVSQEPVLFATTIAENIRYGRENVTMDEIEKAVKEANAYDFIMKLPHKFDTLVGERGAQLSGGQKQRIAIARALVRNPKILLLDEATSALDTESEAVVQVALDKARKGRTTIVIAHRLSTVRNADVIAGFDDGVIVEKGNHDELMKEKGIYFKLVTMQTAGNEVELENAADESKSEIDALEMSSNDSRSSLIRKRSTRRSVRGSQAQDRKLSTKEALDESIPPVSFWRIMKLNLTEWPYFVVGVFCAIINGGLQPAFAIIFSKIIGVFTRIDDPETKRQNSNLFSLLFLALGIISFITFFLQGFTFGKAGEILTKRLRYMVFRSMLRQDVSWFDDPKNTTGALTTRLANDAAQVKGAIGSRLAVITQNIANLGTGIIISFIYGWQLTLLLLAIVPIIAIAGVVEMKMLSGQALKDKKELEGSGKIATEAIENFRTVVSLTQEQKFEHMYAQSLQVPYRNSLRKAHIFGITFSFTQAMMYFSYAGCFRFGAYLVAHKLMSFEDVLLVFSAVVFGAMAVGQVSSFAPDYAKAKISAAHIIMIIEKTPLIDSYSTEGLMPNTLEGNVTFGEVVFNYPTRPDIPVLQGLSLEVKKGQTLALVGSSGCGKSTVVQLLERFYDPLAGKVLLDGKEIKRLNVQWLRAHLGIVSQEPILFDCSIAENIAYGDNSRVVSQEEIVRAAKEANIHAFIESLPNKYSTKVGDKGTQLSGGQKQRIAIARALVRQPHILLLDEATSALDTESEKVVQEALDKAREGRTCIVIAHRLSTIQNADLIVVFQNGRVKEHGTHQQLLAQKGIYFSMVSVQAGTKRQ
UniProt Q12809, sequence (whole entry, looked up): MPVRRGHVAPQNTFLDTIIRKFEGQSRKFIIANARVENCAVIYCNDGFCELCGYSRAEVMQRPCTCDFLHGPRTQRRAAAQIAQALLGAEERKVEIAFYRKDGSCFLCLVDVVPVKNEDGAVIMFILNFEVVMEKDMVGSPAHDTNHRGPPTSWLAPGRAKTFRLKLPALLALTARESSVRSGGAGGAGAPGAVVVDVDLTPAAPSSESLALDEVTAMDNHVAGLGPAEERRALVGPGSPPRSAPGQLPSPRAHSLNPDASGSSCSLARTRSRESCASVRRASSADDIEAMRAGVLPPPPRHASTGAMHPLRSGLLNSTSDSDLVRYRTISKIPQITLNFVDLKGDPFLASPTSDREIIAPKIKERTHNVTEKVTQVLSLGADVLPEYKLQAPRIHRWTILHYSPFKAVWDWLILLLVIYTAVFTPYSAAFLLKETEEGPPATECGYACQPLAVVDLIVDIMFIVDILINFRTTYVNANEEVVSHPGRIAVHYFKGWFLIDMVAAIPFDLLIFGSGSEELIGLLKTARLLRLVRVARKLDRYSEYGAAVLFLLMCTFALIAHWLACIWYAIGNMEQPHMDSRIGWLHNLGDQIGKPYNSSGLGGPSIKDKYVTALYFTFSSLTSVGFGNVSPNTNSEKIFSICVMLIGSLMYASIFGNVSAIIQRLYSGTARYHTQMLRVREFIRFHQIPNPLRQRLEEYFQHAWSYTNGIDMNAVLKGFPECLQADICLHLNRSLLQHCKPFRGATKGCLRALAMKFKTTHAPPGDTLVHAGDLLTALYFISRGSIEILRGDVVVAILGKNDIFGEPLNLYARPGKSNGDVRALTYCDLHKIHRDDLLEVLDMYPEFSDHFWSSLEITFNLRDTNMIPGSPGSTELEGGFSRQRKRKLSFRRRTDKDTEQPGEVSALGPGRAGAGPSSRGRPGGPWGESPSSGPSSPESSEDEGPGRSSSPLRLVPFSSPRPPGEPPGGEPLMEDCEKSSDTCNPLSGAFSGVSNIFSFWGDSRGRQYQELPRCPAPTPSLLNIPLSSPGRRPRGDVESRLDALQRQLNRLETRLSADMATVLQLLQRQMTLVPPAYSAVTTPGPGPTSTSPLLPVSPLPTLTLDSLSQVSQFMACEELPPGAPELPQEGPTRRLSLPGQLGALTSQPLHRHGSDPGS
UniProt P08684, sequence (whole entry, looked up): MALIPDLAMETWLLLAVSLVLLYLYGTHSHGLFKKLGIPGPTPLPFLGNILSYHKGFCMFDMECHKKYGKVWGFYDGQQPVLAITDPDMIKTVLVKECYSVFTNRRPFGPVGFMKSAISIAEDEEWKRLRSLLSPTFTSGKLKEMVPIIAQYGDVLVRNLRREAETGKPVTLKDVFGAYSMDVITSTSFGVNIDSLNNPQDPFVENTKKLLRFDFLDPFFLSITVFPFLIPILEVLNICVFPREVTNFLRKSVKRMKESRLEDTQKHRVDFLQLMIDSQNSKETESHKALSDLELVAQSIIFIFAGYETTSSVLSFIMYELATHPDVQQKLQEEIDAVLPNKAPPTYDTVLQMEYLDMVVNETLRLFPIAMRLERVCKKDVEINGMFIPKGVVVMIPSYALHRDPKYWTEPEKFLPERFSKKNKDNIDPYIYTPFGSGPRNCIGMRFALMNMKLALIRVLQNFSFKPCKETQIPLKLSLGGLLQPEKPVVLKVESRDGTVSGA

Compound	tested on	assay	test system	conditions	how to read	endpoint	result
CCN(CC)C(=O)[C@@H]1C=C2c3cccc4[nH]cc(c34)C[C@H]2N(C)C1		measured: lack of appetite	healthy volunteers	dose not given, 12 to 24 h	baseline: placebo, direction not given	List of Complaints score	4
CC[C@H](C)[C@H](NC(=O)[C@H](C)NC(=O)[C@H](CCCNC(=N)N)NC(=O)[C@H](CCCNC(=N)N)NC(=O)[C@@H](N)CCCNC(=N)N)C(=O)N[C@@H](CO)C(=O)NCC(=O)N[C@@H](CO)C(=O)N[C@@H](CCCNC(=N)N)C(=O)N[C@@H](CCCNC(=N)N)C(=O)N[C@@H](CCCNC(=N)N)C(=O)N[C@@H](CC(C)C)C(=O)N[C@@H](Cc1ccccc1)C(=O)NCC(=O)N[C@@H](Cc1ccc(O)cc1)C(N)=O	human erythrocytes			400 µM, 1 h	baseline: Triton X-100	hemolysis	2%
Cc1ncc2n1-c1ccc(Cl)cc1C(c1ccccc1F)=NC2	Cytochrome P450 3A4 (CYP3A4, Homo sapiens, UniProt P08684)		human, plasma	oral, 2 mg, day 1, alone, median		Tmax	30 min
CC[C@H](C)[C@H](NC(=O)[C@H](CCCNC(=N)N)NC(=O)[C@H](CCCNC(=N)N)NC(=O)[C@@H](N)CCCNC(=N)N)C(=O)N[C@@H](CO)C(=O)N[C@@H](Cc1ccccc1)C(=O)N[C@@H](CC(C)C)C(=O)NCC(=O)N[C@@H](CO)C(=O)N[C@@H](CCCCN)C(=O)N[C@H](C(=O)N[C@H](C(=O)N[C@H](C(=O)N[C@@H](CCCNC(=N)N)C(=O)N[C@@H](CCCNC(=N)N)C(=O)N[C@@H](CCCCN)C(=O)N[C@@H](CCCNC(=N)N)C(N)=O)C(C)C)C(C)C)C(C)C	human erythrocytes			400 µM, 1 h	baseline: Triton X-100	hemolysis	9%
CN1CC[C@@H](c2c(O)cc(O)c3c(=O)cc(-c4ccc(C(F)(F)F)cc4Cl)oc23)[C@@H]1CO		measured: Neutropenia	B-cell malignancies	oral, 200 mg, intermittent dosing		patients with adverse event	0%
COc1cccc(-c2n[nH]c(SCc3ccccn3)n2)c1OC	Salmonella typhimurium	Ames test, preincubation	TA1537	0.25 mg/plate, without S9		revertant colonies per plate	10
C[C@@H](c1nc(-c2ccc(C#N)cc2)cs1)[C@](O)(Cn1cncn1)c1cc(F)ccc1F		gastrointestinal disorders	human	oral, dose not given, added: ethinyl estradiol/norethindrone		subjects with adverse event	17.4%
O=c1ccc2ccccc2o1	HepG2	measured: cell count		concentration not given, 1 h, metal stress panel		probability of response	0.04%
CO[C@H]1C[C@@H]2CC[C@@H](C)[C@@](O)(O2)C(=O)C(=O)N2CCCC[C@H]2C(=O)O[C@H]([C@H](C)C[C@@H]2CC[C@@H](OC(=O)NCCOCCOCCOCCOCCOCCOCCOCCOCCC(=O)N3CCc4cc(Cn5nc(-c6ccc7oc(N)nc7c6)c6c(N)ncnc65)ccc4C3)[C@H](OC)C2)C[C@@H](O)[C@H](C)/C=C(\C)[C@@H](O)[C@@H](OC)C(=O)[C@H](C)C[C@H](C)/C=C/C=C/C=C/1C		phase 1 dose escalation, measured: mucositis	advanced solid tumour patients	intravenous, 12 mg weekly, grade ≥3		dose-reducing adverse events	0%
Cc1ncc2n1-c1ccc(Cl)cc1C(c1ccccc1F)=NC2			wild-type mice, plasma	intravenous, 0.3 mg/kg, added: 14-day BC 500 mg/kg		AUC(0-90 min)	0.102 ± 0.0187 µM·h
OCc1ncc2n1-c1ccc(Cl)cc1C(c1ccccc1F)=NC2			human, plasma	oral, 7.5 mg of midazolam, day 1, arithmetic mean, no amenamevir		AUC(0-inf)	46.6 ng·h/mL
Cc1cc(C(=O)NC(C)(C)COc2cccc3c2C(N)=NS(=O)(=O)N3)cc(C)n1	Salmonella typhimurium	Ames test, initial	TA1535	5.00 µg/plate	baseline: solvent control	revertant ratio	1
CNC1(c2ccccc2Cl)CCCCC1=O (racemic)	KCNH2 (Homo sapiens, UniProt Q12809)	radioligand binding, radioligand displacement		30 µM		inhibition	0%
CC[C@H](C)[C@H](NC(=O)[C@H](C)NC(=O)[C@H](CCCNC(=N)N)NC(=O)[C@H](CCCNC(=N)N)NC(=O)[C@@H](N)CCCNC(=N)N)C(=O)N[C@@H](CO)C(=O)NCC(=O)N[C@@H](CO)C(=O)N[C@@H](CC(C)C)C(=O)N[C@H](C(=O)N[C@H](C(=O)N[C@@H](CC(C)C)C(=O)N[C@@H](Cc1ccccc1)C(=O)NCC(=O)N[C@@H](Cc1ccc(O)cc1)C(=O)N[C@@H](CCCNC(=N)N)C(=O)N[C@@H](CCCNC(=N)N)C(=O)N[C@@H](CCCNC(=N)N)C(N)=O)[C@@H](C)O)C(C)C	human erythrocytes			400 µM, 1 h	baseline: Triton X-100	hemolysis	6%
CC(C)CC(=O)OC[C@H]1O[C@@](C#N)(c2ccc3c(N)ncnn23)[C@H](O)[C@@H]1O	ABCB1 (Homo sapiens, UniProt P08183)	apical to basolateral transport	Caco-2	0.9 µM, 2 h, added: verapamil 100 µM		recovery	58.1%
CC[C@H](C)[C@H](NC(=O)[C@H](CC(C)C)NC(=O)[C@H](CCCNC(=N)N)NC(=O)[C@H](CCCNC(=N)N)NC(=O)[C@H](CCCNC(=N)N)NC(=O)[C@H](CCCNC(=N)N)NC(=O)[C@H](CC(C)C)NC(=O)[C@@H](NC(=O)[C@@H](NC(=O)[C@@H](NC(=O)[C@H](CCCNC(=N)N)NC(=O)[C@H](CCCNC(=N)N)NC(=O)[C@H](CCCNC(=N)N)NC(=O)[C@@H](N)CCCNC(=N)N)C(C)C)[C@@H](C)CC)[C@@H](C)CC)C(=O)N[C@@H](CO)C(=O)N[C@@H](Cc1ccccc1)C(=O)N[C@@H](CO)C(=O)N[C@@H](C)C(=O)N[C@@H](Cc1ccc(O)cc1)C(N)=O	human erythrocytes			400 µM, 1 h	baseline: Triton X-100	hemolysis	40%
COc1cc2c(Oc3ccc4[nH]c(C)cc4c3F)ccnc2cc1OCC1(N)CC1			paediatric recurrent refractory sarcoma	8 mg/kg		grade 3 Rash	0%
CC[C@H](C)[C@H](NC(=O)[C@H](CC(C)C)NC(=O)[C@H](CCCNC(=N)N)NC(=O)[C@H](CC(C)C)NC(=O)[C@@H](NC(=O)[C@@H](NC(=O)[C@H](CCCNC(=N)N)NC(=O)[C@@H](NC(=O)[C@@H](NC(=O)[C@H](CCCNC(=N)N)NC(=O)[C@H](CCCNC(=N)N)NC(=O)[C@H](CCCNC(=N)N)NC(=O)[C@H](CO)NC(=O)[C@@H](N)CCCNC(=N)N)[C@@H](C)CC)[C@@H](C)CC)[C@@H](C)CC)C(C)C)C(=O)N[C@@H](CCCNC(=N)N)C(=O)N[C@@H](CCCNC(=N)N)C(=O)N[C@@H](CO)C(=O)N[C@@H](C)C(=O)N[C@@H](CCCNC(=N)N)C(N)=O	human erythrocytes			400 µM, 1 h	baseline: Triton X-100	hemolysis	76%
O=[N+]([O-])c1ccc(N2CCN(CCC(O)c3ccc(F)cc3)CC2)c(C(F)(F)F)c1 (centres unmarked)	Salmonella typhimurium	SOS/umu test	TA1535/pSK1002	0.016 mg/mL, 4 h, without S9, full range		survival	92.7%
COc1ncnn2ccc(-c3cnc4nc(C)n(Cc5nnc([C@@H](C)F)o5)c4c3)c12			human	oral, dose not given, grade 2		patients with fatigue	7.1%
